Measured values of several laboratories.
Parts stem from different laboratories: compare values within a part only.

Block 1 — method: protein-binding microarray; molecule type: double-stranded DNA, one strand shown; sample: in vitro; concentration: 2200 nM top; notes: 60-bp whole probe; together with: salmon DNA 0.4 mg/ml; relative to: random background probes; reading: higher = stronger binding; all sequences stand within: GCCTAGCAC … GTCTTGATTCGCTTGACGCTGCTG
Target: Interferon regulatory factor 7, full length, phosphomimetic (IRF7, Homo sapiens, UniProt Q92985, residues 1-503, S471D/S472D/S475D/S476D/S477D/S483D/S484D/S487D)
Sequence of UniProt Q92985 (whole entry, unmodified, looked up): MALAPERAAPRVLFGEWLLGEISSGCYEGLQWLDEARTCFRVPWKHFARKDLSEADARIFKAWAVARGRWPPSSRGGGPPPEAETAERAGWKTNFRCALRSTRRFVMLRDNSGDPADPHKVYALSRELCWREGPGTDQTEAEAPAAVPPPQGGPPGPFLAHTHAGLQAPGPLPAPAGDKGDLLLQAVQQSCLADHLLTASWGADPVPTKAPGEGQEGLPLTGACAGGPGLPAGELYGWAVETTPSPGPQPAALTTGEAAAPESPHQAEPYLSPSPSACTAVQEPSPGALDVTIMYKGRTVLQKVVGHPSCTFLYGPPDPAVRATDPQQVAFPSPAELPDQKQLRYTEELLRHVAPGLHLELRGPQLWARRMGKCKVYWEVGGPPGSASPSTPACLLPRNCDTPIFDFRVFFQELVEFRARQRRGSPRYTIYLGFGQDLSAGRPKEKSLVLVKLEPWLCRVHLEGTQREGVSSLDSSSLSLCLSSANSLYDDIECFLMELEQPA
Sequence	fitted relative affinity [z-score]
GACGGACAGCTTTTCCTGACGTGCTAG	0.298
TCATTTCTCCTATTTAAACTGTGCTAG	2.48
TCTCCTCTAGGTTCTCTGAGAGTGCTA	0.935
TTAGGTATCGACACTGGGTTAGTGCTA	-0.0713
TTAGATCTCAGGCTCGATTAGTGCTAG	-0.112
GACGATTTCAGTTTCGAGAAGTGCTAG	3.77
TTAGATATGGGGTATCGATTAGTGCTA	0.451
TTAGGACTGCTTCTCCGTTAGTGCTAG	0.732
AATATTATAACACTCTTCTTGTGCTAG	0.746

Block 2 — method: protein binding microarray; molecule type: double-stranded DNA, one strand shown; sample: in vitro; concentration: not given; relative to: not given; reading: higher = stronger binding
Target: Histone acetyltransferase KAT6A, winged helix 1, GST fusion (KAT6A, Homo sapiens, UniProt Q92794, residues 1-85)
Notes: 8-mer, flanks averaged, mean of 2 arrays, mostly near background
Construct (chain): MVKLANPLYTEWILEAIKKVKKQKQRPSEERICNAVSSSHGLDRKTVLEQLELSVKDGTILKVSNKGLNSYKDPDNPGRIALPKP
Sequence	E-score
CAAAAGAA	-0.116
TCATCGGA	-0.0292
ACACGTGA	-0.0706
ACCCACAT	-0.227
AGTGTTAA	0.0816
CCAGTCCG	0.197
CATCTCAG	-0.0893
AGTACCCA	-0.0516
GGGATGCA	-0.0974

Block 3 — method: protein-binding microarray; molecule type: double-stranded DNA, one strand shown; sample: in vitro; concentration: not given; reading: higher = stronger binding
Target: Hepatocyte nuclear factor 3-beta, forkhead domain (FOXA2, Homo sapiens, UniProt Q9Y261, residues 142-269)
Notes: k-mer, scored over probes, only values ≥0.25
Target sequence (chain): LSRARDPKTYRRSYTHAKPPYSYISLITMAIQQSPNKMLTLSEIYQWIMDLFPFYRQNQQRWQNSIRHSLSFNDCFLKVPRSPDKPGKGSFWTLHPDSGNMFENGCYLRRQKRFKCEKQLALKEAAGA
Sequence	E-score
AAGGATAT	0.275
GTCAACAA	0.365
AACGCAAC	0.278
AAGAACAA	0.261
ATATAAAT	0.302
ATAACAAA	0.297
AGACTATA	0.286
AATTAACA	0.328
AACTATCT	0.275
ATATTGAC	0.36
CTGTTTAC	0.4

Other studies, line by line
Substance	target	assay	system	setting	how to read	quantity	result
PhoQ, residues 284 288 289 292 302 303 TSTLRA	PhoP, residues 12 14 15 18 19 VHTVL (Escherichia coli, UniProt P23836)	Sort-seq, refers to: YFP reporter	E. coli	PhoQ-PhoP variant library, together with: 10 µM Mg2+	relative to: high Mg2+ state, higher = stronger signaling	fold induction	4.3
